Measurements gathered from unrelated publications.
Each numbered part is a random draw from the data of one study; scales do not carry over between parts.

Set 1 — technique: protein-binding microarray; molecule type: double-stranded DNA, one strand shown; medium: in vitro; tested at: 2540 nM top; notes: 60-bp whole probe; added: salmon DNA 0.4 mg/ml; reference: random background probes; reading: higher = stronger binding; all sequences stand within: GCCTAGCAC … GTCTTGATTCGCTTGACGCTGCTG
Target: Interferon regulatory factor 3, full length, phosphomimetic (IRF3, Homo sapiens, UniProt Q14653, residues 1-427, S386D/S396D/S398D/S402D/T404D/S405D)
UniProt Q14653, sequence (whole entry, unmodified, looked up): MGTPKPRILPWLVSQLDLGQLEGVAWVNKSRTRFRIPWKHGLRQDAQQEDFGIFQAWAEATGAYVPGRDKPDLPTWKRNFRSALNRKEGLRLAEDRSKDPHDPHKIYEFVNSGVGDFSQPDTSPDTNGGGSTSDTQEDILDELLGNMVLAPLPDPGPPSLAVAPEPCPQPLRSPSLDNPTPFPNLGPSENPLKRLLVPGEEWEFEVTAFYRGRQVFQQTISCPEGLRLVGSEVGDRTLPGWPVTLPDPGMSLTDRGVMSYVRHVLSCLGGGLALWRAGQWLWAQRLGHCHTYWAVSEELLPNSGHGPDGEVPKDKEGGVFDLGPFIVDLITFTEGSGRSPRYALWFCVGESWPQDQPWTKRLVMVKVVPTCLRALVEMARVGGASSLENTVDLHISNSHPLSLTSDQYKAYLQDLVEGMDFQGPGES
| Oligonucleotide | fitted relative affinity [z-score] |
| --- | --- |
| GACCGACTGGGTTTCGGGACGTGCTAG | 1.73 |
| TTAGGTCTTGGACTGGGTTAGTGCTAG | -0.966 |
| TTAGGTTTCGGTCCCGGTTAGTGCTAG | 6.09 |
| GACGGTATCGGTACCGGGACGTGCTAG | 3.42 |
| GACGATATCGGGTATCGAGTCGTGCTA | 0.489 |
| TTGTGTTTGTCCCTATTTAAGTGCTAG | 0.606 |
| CAGATGGAATTAAGAAGATGGTGCTAG | 0.438 |
| TTTCGTTACTTCCTCAAACAGTGCTAG | 5.68 |
| GACGATCTCAGTTTCGAGAAGTGCTAG | 2.26 |
| GACGGTTTCGGGACTGAGGACGTGCTA | 4.98 |
| CACGGTCTCGGTTTCGGGACGTGCTAG | 3.73 |
| TTAGAACCGGGGACTGGATTAGTGCTA | -0.722 |
| TCATCTCTCATGTTACAACTGTGCTAG | 1.38 |
| GACCATATCAGACTGGAGACGTGCTAG | 1.01 |
| TCATGTTCCCTCATCAGACTGTGCTAG | 0.918 |
| TTAGGTCTCGATCTCGGTTAGTGCTAG | 1.01 |
| TCATCTCTTATTCTAACACTGTGCTAG | 1.46 |
| CCTCTTTTTTGTTCCACGCCGTGCTAG | 1.81 |
| TTAGGACTCGGGTTTCGGTTAGTGCTA | 2.33 |
| GACGGTATCGCCTTTCGGGACGTGCTA | 1.62 |

Set 2 — technique: RNA Bind-n-Seq; molecule type: RNA; medium: in vitro; tested at: 365 nM; reference: no-protein control; reading: higher = stronger binding
Target: RNA binding protein fox-1 homolog 2, RRM domain, GST-SBP tag (RBFOX2, Homo sapiens, UniProt O43251-10, residues 100-194)
Notes: natural RNA segment, single round, ends assumed
All sequences stand within: GGGAGUUCUACAGUCCGACGAUC … UGGAAUUCUCGGGUGCCAA
Target sequence (chain): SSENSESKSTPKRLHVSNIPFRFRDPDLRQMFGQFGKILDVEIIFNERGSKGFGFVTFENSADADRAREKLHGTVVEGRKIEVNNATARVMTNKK
| Oligonucleotide | RBNS enrichment (R) |
| --- | --- |
| UCACGUGCUCCUUGUCCUAACCAGCCCCCGCGCGCCAUCUUCCCGUGGAGUGUGGGGAAGCUGCUGUCUCCCAGGAAGUGCCUUACUCAUCCCGCAACCAGUCAGCGCAC | 0.243 |
| AGCAUCAGCUCAGACCGUGGGGUUCCACUGGGUAUUGGGAAUUAGGCUCCCCCACUAGCUUUCAGGUGGGUAAGUUUUUUUGUUUGUUUUUUGGGGGUCUUUAGACUCUU | 4.36 |
| AACUCUUUUGAAAUAACUUUGGUGCCCAGGCCAAGUAGAAUGAGAUGAGACUGAGUUUGGCCUCUGGCUCGGUUUCCUUUCUUUGGUCUGAUACUUCAUGUAUUUGAAUA | 0.555 |
| CUGGAUCUAAGCUCAGGAGUACACAUAGCAGCUAUGGGUAUGGGUGUCCUCCUCUGGUGUAACUGUGAGACUAAGUGAUAGGAAGAAGUAAAGCCUUCAUAGCGAGUGGA | 0.784 |
| UUUGAUAAACACUGAAGAAGCUGGAGCUGUUAAAUUUAUCUUGGGGAAAUCUCAGAACUGGUUUAUUUGGUGUCGUGGAACCUCUUACCGCUUUCAAUACACAAUUAGUA | 0.735 |
| AUAUAGCUUAUUUUCUUCAUUUACUAGAGGAGGAAAAAUAGAACCAAAAAAUGCAUGAACUCCUGCUUUUCAAUCUGAUUACCUCAAACUGAAAAGCAGGUGAAAGGAGG | 0.975 |
| AGACUUGAGGUCCCCACCCAGGCCAAGCCGGCCCCCCGUACCCCUUGCCUGGGAGCAAACCGCCAGGACGCAGCCUCCACGCCGCACCUGCCACAUUCAGCCCUGCCCAG | 0.357 |
| UCAUUGUCUUUUCCUGUGUAAAUGUUAAAUGACAAUACCAUCGGUGAAGGCCCUCCACAGUGGACAGAGCAACUUCCUUUCCAGCCUCUGCUGGUAGCAUGCUGCAGCUU | 3.76 |
| AGGUAGUGUUUUCAGUACCAUCAUCACUUCUGUCACUCACAGCAUAAUUGUGGAAGCAGAUUCAUUGCUAGUUUAGUUUCAUAUAUAAUAUAUACAGUAAUUGUAGGGUC | 0.6 |
| UCAUCCCCUUUGUCCUUUUGGGAAGCAAGUAUCUAUUCCAGUCUCAAGUCCUGCAGUUGCUGGAGCGCUUACGCACCUGAGCCCUUUGUGUCCUGGGGGAGAGAUGGCCA | 0.616 |
| UAUCUGGGCCUGGCCAUGGCUGUGUUCUUCAUGUGUUGAUUUUAUUUGACCCCUGGAGUGGUGGGUCUCAUCUUUCCCAUCUCGCCUGAGAGCGGCUGAGGGCUGCCUCA | 0.563 |
| CGAGUGAGUGAGUUGAGUUACCUGAACUCUGUAGCACUGGUUGUUCAUAGUGAUGAAGGACAGCACUGCAGACAUCUCCCUUGCCAUCUCUAGCCUGCUGUGGAAGGAAA | 3.42 |

Set 3 — technique: protein binding microarray; molecule type: double-stranded DNA, one strand shown; medium: in vitro; tested at: not given; reference: not given; reading: higher = stronger binding
Target: Histone acetyltransferase KAT6A, winged helix 1, GST fusion (KAT6A, Homo sapiens, UniProt Q92794, residues 1-85)
Notes: 8-mer, flanks averaged, mean of 2 arrays, mostly near background
Target sequence (chain): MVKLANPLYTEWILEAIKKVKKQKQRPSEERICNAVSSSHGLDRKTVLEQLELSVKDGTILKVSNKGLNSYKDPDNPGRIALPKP
| Oligonucleotide | E-score |
| --- | --- |
| TATGTAAA | -0.124 |
| TAGCGTCA | -0.0366 |
| AGTGCCGC | 0.336 |
| GACCACGA | -0.184 |
| GTGGTTCA | -0.0609 |
| GTCTAAGA | -0.0565 |
| CTGCGGGA | 0.185 |
| AGTCTAAA | -0.234 |
| TAGTTACA | -0.0536 |
| GTAGGTGA | -0.13 |
| AGAGGTAC | -0.0966 |
| CCTCAGAA | -0.118 |
| CGACAATC | -0.116 |
| CACAGCAG | -0.203 |
| ACTCATGG | -0.115 |
| ACCAAGCC | -0.0159 |
| TAATACCA | 0.00456 |
| AAACAGCT | -0.157 |
| ATACTACC | 0.0638 |
| GATCGTGC | 0.0477 |
| TAAATATA | -0.00921 |

Set 4 — technique: RNA Bind-n-Seq; molecule type: RNA; medium: in vitro; tested at: 15 pmol; notes: 4-mer, random 30-nt RNA, single round; added: DMSO vehicle, 2 mM AMP-PNP; reference: input library; reading: higher = stronger binding
Target: Eukaryotic initiation factor 4A-I (EIF4A1, Homo sapiens, UniProt P60842, residues 1-406, full length assumed)
UniProt P60842, sequence (whole entry, looked up): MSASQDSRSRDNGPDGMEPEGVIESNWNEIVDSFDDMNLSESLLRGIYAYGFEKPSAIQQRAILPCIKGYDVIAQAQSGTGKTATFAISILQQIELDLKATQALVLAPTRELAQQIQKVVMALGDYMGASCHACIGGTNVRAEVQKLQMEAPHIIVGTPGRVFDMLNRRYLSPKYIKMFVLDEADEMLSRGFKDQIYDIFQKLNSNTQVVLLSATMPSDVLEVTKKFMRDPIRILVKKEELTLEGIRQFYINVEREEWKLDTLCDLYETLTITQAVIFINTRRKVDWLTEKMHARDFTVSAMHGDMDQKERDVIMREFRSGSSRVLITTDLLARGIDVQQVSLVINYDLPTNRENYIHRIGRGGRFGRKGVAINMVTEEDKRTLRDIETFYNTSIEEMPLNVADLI
| Oligonucleotide | 4-mer enrichment [fold] |
| --- | --- |
| UGCC | 1.25 |
| UGCU | 1.18 |
| AAGC | 1.55 |
| CAUA | 1.08 |
| ACUG | 1.3 |
| GUCG | 0.874 |
| GUUG | 0.881 |
| GCCG | 1.47 |
| ACGA | 1.44 |
| UCCA | 1.63 |
| CGAA | 1.11 |
| UUGU | 0.679 |
| GUUU | 0.871 |
| GGUU | 0.938 |
| CUCG | 0.909 |
| UAUG | 0.877 |
| CGUA | 0.582 |
| GUAA | 0.757 |
| UCAU | 0.912 |
| UUGA | 1.03 |

Set 5 — technique: RNA Bind-n-Seq; molecule type: RNA; medium: in vitro; tested at: 200 nM; notes: whole 134-nt RNA, ends assumed; added: 150 mM LiCl; reference: input library; reading: higher = stronger binding; all molecules: 7-deaza-guanosine replaces G
Target: Fragile X messenger ribonucleoprotein 1, C-terminal low-complexity region (Fmr1, Mus musculus, UniProt P35922)
All sequences stand within: GGGAGUUCUACAGUCCGACGAUC … UGGAAUUCUCGGGUGUCAAGG
| Oligonucleotide | log2 enrichment |
| --- | --- |
| GCUCGCCCGAGCUCAGAGGUGAUCAAAGACGCCAACUUGUACAUCAGCGGGCUCCCGCGGACCAUGACCCAGAAGGACGUAGAAGACAUG | -1.79 |
| ACCAUGCAGGUGGGCAUCUUUGGGAAGUGGGGCAAGGGGGGGAUAGUGAGGGGGGUAACACUUUGGGAACAGGUGGUCCCAGGUCGUUUC | 1.34 |
| ACCAUGCAAAAGGGCAUCUUUGGGAAGUGGGGCAAGGGGGGGAUAGGGAGGGGGGUAACACUUUGGGAACAGGUGGUCCCAGGUCGUUUC | 1.6 |
| AGUCCUGUGCUACACAUCGUAUGUACCGAAUCGGGAAAAAGGGAAAAAGGGAAAGGGAAAGUAUUAUGUUACGCCGUUCGGAUCUGCACU | -1.03 |
| UAACUUUAGAGGAGGAUCUGAUGGAUAUGGCAGUGGACGUGGAUUUGGGGAUGGCUAUAAUGGGUAGGGAGGAGGACCUGGAGGUGGCAA | -0.0637 |
| CAAGUCCUGUGCUACACAUCGUAUGUACCGAAUCGGGUUUGGGUUUUUGGGAGGGAAAGUAUUAUGUUACGCCGUUCGGAUCUGCACUUC | -0.52 |
| UGGGAGGUGGAUUUUGUUUAUUUUUUUAGCUCAUUUCCAGGGGUGGGAAUUUUUUUUUCAUAUGUGUCAUGAAUAAAGUUGUUUUUGAAA | 0.34 |
| ACCAUGCAGGUGGGCAUCUUUGGGAAGUGGGGCAAGGGGGGGAUAGGGAGGGGGGUAACACUUUGGCAACAGGUGGUCCCAGGUCGUUUC | 1.24 |
| UAACUUUAGAGGAGGAUCUGAUGGAUAUGGCAGUGGACGUGGAUUUGGGGAUGGCUAUAAUGGGUAUGGAGGAGGAGCUGGAGGUGGCAA | 1.26 |
| AAGUCCUGUGCUACACAUCGUAUGUACCGAAUCGGGAGGGAAAGGGAAAAAAAGGGAAAGUAUUAUGUUACGCCGUUCGGAUCUGCACUU | 0.108 |
| CCUGUGCUACACAUCGUAUGUACCGAAUCGGGGCCCCCCGGGCCCCCCGGCCCCCCGGGGAAAGUAUUAUGUUACGCCGUUCGGAUCUGC | -1.01 |

Excerpt of the above (set 4):
| Oligonucleotide | 4-mer enrichment [fold] |
| --- | --- |
| UUGU | 0.679 |
| UAUG | 0.877 |
| UUGA | 1.03 |
| GCCG | 1.47 |
| UCCA | 1.63 |
| GUUU | 0.871 |
| CUCG | 0.909 |
| AAGC | 1.55 |
| UGCU | 1.18 |
| GUCG | 0.874 |
| GUAA | 0.757 |
